Literature values as cited in several papers.
Lines come from different studies, so protocols differ. ± marks the error that the study gave. Converted amounts (≈) assume the structure as drawn.

SMILES	target or system	test	system	conditions	scale	measurement	result
COCCCc1nc(C(F)(F)F)ccc1CNC(=O)Nc1cccc2[nH]ncc12	TRPV1	calcium flux, antagonist	HEK293	together with: capsaicin	–	IC50	12 nM
Cc1c(C#N)cccc1[C@@H](C)Nc1nnc(C)c2cnc(N3CCOCC3)cc12	NCI-H508	ERK phosphorylation, In-Cell Western, refers to: phospho-ERK	–	–	–	IC50	22.5 ± 19.3 nM
CCNS(=O)(=O)c1ccc(OC)cc1C1(O)CCN(Cc2cccc(Oc3ccccc3OC)c2)CC1	human CCR8 Y42A mutant (TM1)	IP accumulation, agonist	–	–	–	EC50	178 nM
CCCCC(CC)C(=O)O (stereo not drawn)	CALUX reporter cell lines	reporter gene	–	cell-total, minimum across	–	EC10	7000 nM
C[C@H]1COCCN1c1nc(-c2cnc(N)cc2C(F)F)nc(N2CCOCC2)n1	769-P	–	–	–	–	GI50	458 nM
O=C(NCc1ccc(OC(F)(F)F)cc1)Nc1cccc2ccc(O)cc12	TRPV1	calcium flux, antagonist	HEK293	together with: capsaicin	–	IC50	27 nM
Cc1cnc(N2CC3(CCOCC3)C2)c(C(=O)Nc2ccc(C(=O)N3CCc4cc(C(=O)Nc5c(C)cccc5F)sc4-c4ccccc43)cc2)c1	respiratory syncytial virus	cytopathic effect	B WST	–	–	IC90	0.0408 µg/mL (≈ 0.057 µM)
CNC(C)C1CCC(N)C(OC2C(N)CC(N)C(OC3OCC(C)(O)C(NC)C3O)C2O)O1 (stereo not drawn)	Enterobacter cloacae	–	clinical isolate RKI-No_136/15	–	–	MIC	4 µg/mL (≈ 8.38 µM)
CC(C)(C(=O)O)c1ccc(Nc2ncnc3sc(Nc4c(Cl)cccc4Cl)nc23)cc1	TRPV1	calcium flux, antagonist	HEK293	together with: capsaicin	–	IC50	31 nM
COc1ccccc1Oc1cccc(CN2CCC(NC(=O)C(CCN3CCCC3)c3ccccc3)CC2)c1 (stereo not drawn)	human CCR8 V109A mutant (TM3)	IP accumulation, agonist	–	–	–	EC50	2.6 nM
Nc1cccc2c1C(=O)N(C1CCC(=O)NC1=O)C2=O (stereo not drawn)	–	–	relapsed refractory multiple myeloma patients	dose not given, alternate-day dosing	–	progression-free survival	10.5 months
CC1(C)S[C@@H]2[C@H](NC(=O)[C@H](N)c3ccccc3)C(=O)N2[C@H]1C(=O)O	Pseudomonas aeruginosa	–	clinical isolate RKI-No_462/13	–	–	MIC	> 16 µg/mL
Nc1cc(C(F)(F)F)c(-c2nc(N3CCOCC3)nc(N3CCOCC3)n2)cn1	U-2 OS	–	–	–	–	GI50	536 nM
CC1(C)CCC(CN2CCN(c3ccc(C(=O)NS(=O)(=O)c4ccc(NCC5CCOCC5)c([N+](=O)[O-])c4)c(Oc4cnc5[nH]ccc5c4)c3)CC2)=C(c2ccc(Cl)cc2)C1	–	–	human, AML	concentration not given, together with: low-dose cytarabine	–	CR with partial hematologic recovery rate	21%
O=C(NCc1ccc(C(F)(F)F)cc1)Nc1cccc2ccc(O)cc12	TRPV1	calcium flux, antagonist	HEK293	together with: capsaicin	–	IC50	4 nM
COc1ccccc1Oc1cccc(CN2CCC(NC(=O)C3CC(=O)Nc4ccccc43)CC2)c1 (stereo not drawn)	human CCR8 F290A mutant (TM7)	IP accumulation, agonist	–	–	–	EC50	29 nM
COc1ccc2c(c1)CCC(NC(=O)Nc1cccc3cnccc13)C2Cc1ccccc1 (stereo not drawn)	TRPV1	calcium flux, antagonist	HEK293	together with: capsaicin	–	IC50	25 nM
COc1ccccc1Oc1cccc(CN2CCC(O)(c3ccccc3C(=O)O)CC2)c1	human CCR8 Q91W mutant (TM2)	IP accumulation, agonist	–	–	–	EC50	368 nM
CC(CNC(=O)c1ccc(OC(F)(F)F)cc1)c1ccc(O)c2ccc(O)cc12 (stereo not drawn)	TRPV1	calcium flux, antagonist	HEK293	together with: capsaicin	–	IC50	14 nM
C[N+]1(C)CCC(OC(=O)C(O)(c2ccccc2)C2CCCC2)C1 (stereo not drawn)	–	–	COPD patients	inhaled, 25 µg once daily, 24 h postdose, dosing day 1	baseline: baseline	placebo-corrected trough FEV1 change	53 mL
CC(C)(F)CCc1cc(C(F)(F)F)ccc1CNC(=O)Nc1cccc2[nH]ncc12	TRPV1	calcium flux, antagonist	HEK293	together with: capsaicin	–	IC50	6 nM
COc1ccccc1Oc1cccc(CN2CCC3(CC2)C(=O)NCN3CCc2ccccc2)c1	CCR8 human G206W	inositol phosphate accumulation, agonist	–	–	–	EC50	no effect
C[C@@H]1CN(c2ncccc2C(F)(F)F)CCN1C(=O)Nc1ccc(C(F)(F)F)cc1	TRPV1	calcium flux, antagonist	HEK293	together with: capsaicin	–	IC50	17 nM
COC[C@@H](c1ccc(C(F)(F)F)cc1)N1CCN(C2(C)CCN(C(=O)c3c(C)ncnc3C)CC2)C[C@@H]1C	–	–	treatment-naive HIV patients	25 mg twice daily, day 14, monotherapy without ritonavir	–	HIV RNA reduction	1.56 log copies/mL

Excerpt of the above:
SMILES	target or system	test	system	conditions	scale	measurement	result
CC(C)(C(=O)O)c1ccc(Nc2ncnc3sc(Nc4c(Cl)cccc4Cl)nc23)cc1	TRPV1	calcium flux, antagonist	HEK293	together with: capsaicin	–	IC50	31 nM
COC[C@@H](c1ccc(C(F)(F)F)cc1)N1CCN(C2(C)CCN(C(=O)c3c(C)ncnc3C)CC2)C[C@@H]1C	–	–	treatment-naive HIV patients	25 mg twice daily, day 14, monotherapy without ritonavir	–	HIV RNA reduction	1.56 log copies/mL
C[N+]1(C)CCC(OC(=O)C(O)(c2ccccc2)C2CCCC2)C1 (stereo not drawn)	–	–	COPD patients	inhaled, 25 µg once daily, 24 h postdose, dosing day 1	baseline: baseline	placebo-corrected trough FEV1 change	53 mL
